Measurements pooled from the literature.
Numbers after ± are the reported error.
CDK2 with cyclin A: Cyclin-dependent kinase 2, with cyclin A (CDK2, Homo sapiens, UniProt P24941)
CDK8: Cyclin-dependent kinase 8 (CDK8, Homo sapiens, UniProt P49336)
Sequence of UniProt P49336 (whole entry, looked up): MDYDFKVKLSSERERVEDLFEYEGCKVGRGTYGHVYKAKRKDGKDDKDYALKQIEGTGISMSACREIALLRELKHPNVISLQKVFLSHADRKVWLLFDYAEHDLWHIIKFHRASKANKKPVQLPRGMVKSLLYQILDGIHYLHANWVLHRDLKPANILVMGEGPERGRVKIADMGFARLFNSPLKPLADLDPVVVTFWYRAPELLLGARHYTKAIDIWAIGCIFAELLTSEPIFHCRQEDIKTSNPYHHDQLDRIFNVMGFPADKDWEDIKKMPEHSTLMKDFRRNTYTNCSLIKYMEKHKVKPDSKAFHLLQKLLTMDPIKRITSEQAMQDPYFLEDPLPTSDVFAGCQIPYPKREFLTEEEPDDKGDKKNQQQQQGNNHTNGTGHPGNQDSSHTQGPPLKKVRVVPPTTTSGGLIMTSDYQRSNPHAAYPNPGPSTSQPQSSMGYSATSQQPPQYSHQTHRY
Urease: Urease (Canavalia ensiformis, UniProt P07374)
Sequence of UniProt P07374 (whole entry, looked up): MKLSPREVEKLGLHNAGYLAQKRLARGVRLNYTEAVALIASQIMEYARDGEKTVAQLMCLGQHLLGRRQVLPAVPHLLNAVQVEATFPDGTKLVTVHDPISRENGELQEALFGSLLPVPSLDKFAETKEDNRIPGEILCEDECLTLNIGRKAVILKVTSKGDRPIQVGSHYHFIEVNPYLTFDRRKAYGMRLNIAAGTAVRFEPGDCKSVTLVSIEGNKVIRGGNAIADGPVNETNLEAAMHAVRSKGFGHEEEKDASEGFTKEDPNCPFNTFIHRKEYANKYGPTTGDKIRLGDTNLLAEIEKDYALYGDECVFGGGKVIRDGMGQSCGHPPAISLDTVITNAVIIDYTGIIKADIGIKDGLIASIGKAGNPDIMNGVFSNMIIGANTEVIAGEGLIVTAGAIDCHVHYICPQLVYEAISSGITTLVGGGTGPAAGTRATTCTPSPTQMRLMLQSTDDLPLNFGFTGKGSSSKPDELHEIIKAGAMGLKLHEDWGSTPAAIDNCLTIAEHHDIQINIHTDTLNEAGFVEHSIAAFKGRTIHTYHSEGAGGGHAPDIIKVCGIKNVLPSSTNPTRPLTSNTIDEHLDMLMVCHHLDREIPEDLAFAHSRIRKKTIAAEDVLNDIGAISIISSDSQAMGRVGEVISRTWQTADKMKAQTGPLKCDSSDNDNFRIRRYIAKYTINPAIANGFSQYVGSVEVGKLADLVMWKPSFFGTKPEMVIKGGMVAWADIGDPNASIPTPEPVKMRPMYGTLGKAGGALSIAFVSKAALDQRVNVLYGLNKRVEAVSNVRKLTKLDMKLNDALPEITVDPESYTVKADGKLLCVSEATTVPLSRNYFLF
MED23 with ELF3: Mediator of RNA polymerase II transcription subunit 23, with ELF3 (MED23, Homo sapiens, UniProt Q9ULK4)
Replicase polyprotein 1ab main protease: Replicase polyprotein 1ab, main protease (Feline coronavirus, UniProt Q98VG9)
Replicase polyprotein 1a 3C-like proteinase: Replicase polyprotein 1a, 3C-like proteinase (Ferret coronavirus, UniProt A0A172B201)
Plasmepsin X: Plasmepsin X (Plasmodium falciparum, UniProt Q8IAS0)
Sequence of UniProt Q8IAS0 (whole entry, looked up): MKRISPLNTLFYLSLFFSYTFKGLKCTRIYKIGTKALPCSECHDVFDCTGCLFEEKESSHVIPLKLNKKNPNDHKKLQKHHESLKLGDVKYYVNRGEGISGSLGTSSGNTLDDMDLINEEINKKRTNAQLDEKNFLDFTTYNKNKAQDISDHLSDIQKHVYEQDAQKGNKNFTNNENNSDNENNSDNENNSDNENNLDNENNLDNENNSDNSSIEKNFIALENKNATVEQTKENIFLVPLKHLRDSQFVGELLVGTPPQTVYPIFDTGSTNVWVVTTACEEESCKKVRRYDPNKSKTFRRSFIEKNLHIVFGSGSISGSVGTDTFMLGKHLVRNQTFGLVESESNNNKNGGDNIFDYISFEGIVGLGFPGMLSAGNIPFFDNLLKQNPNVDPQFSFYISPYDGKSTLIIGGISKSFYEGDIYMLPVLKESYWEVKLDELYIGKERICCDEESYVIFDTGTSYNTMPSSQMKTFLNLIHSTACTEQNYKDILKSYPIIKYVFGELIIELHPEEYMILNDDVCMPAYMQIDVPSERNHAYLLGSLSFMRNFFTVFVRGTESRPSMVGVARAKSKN
Sequence of UniProt P00797 (whole entry, looked up): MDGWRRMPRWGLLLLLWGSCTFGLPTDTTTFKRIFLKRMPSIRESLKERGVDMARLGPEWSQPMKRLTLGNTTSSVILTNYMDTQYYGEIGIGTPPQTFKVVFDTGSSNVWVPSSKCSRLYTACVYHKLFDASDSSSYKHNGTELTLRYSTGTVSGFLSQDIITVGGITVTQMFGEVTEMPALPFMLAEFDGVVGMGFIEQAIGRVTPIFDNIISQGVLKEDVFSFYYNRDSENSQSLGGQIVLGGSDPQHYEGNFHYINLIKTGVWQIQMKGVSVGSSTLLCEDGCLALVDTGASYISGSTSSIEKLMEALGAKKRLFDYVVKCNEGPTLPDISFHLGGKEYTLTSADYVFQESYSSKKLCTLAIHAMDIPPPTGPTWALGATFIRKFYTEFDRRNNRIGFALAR
Sequence of UniProt P18031 (whole entry, looked up): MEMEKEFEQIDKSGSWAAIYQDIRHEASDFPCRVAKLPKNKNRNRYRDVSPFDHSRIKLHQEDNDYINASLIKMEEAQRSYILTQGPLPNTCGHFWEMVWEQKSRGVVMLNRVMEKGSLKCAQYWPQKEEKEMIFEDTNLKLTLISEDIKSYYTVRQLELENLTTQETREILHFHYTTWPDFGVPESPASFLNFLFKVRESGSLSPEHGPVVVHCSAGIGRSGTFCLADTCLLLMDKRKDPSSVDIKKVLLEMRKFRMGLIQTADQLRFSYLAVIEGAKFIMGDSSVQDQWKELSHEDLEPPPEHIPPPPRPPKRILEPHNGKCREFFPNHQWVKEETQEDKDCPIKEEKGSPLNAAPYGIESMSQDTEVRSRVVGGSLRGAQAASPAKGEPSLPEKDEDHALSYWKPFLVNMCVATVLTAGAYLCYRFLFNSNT

Cc1cccc(-c2ccc3nc(N)nn3c2)c1 — IC50 (CDK2 with cyclin A; enzyme activity, inhibitor): 37 µM
CC(=O)c1cccc(NS(=O)(=O)c2ccc3c(c2)C(=C(C)C)C(=O)N3)c1 — IC50 (CDK8; enzyme activity, inhibitor, FRET): 1.49 µM
Cc1cc(C)cc(-c2ccc3nc(NC(=O)C4CCCCC4)nn3c2)c1 — IC50 (CDK2 with cyclin A; enzyme activity, inhibitor): > 100 µM
CN(C)c1ccc(C2CC(c3ccccc3O)=NN2c2ccccc2)cc1 (stereo not shown) — IC50 (Urease; enzyme activity, inhibitor, absorbance; pH 8.2): 15.6 µM
COc1ccc(C=CC(=O)c2ccccc2O)c2ccccc12 — IC50 (MED23 with ELF3; SEAP reporter gene, inhibitor): 2.39 ± 0.36 µM
O=C[C@H](C[C@@H]1CCNC1=O)NC(=O)[C@H](CC1CCCCC1)NC(=O)OCc1ccccc1 — IC50 (Replicase polyprotein 1ab main protease; enzyme activity, inhibitor, FRET): 0.69 µM
CC(=O)Nc1ccc(NS(=O)(=O)c2ccc3c(c2)C(=C(C)C)C(=O)N3)cc1 — IC50 (CDK8; enzyme activity, inhibitor, FRET): 1.68 µM
Cc1cccc(-c2ccc3nc(NC(=O)C4CCCC4)nn3c2)c1 — IC50 (CDK2 with cyclin A; enzyme activity, inhibitor): > 100 µM
Oc1ccccc1C1=NN(c2ccccc2)C(c2ccc(C(F)(F)F)cc2)C1 (stereo not shown) — IC50 (Urease; enzyme activity, inhibitor, absorbance; pH 8.2): 12.6 µM
CC(C)C[C@H](NC(=O)[C@@H](NC(=O)[C@H](CCONC(=N)N)NC(=O)OCc1ccccc1)C(C)C)[C@@H](O)CC(=O)NCCc1ccccc1 — IC50 (Renin (REN, Homo sapiens, UniProt P00797); enzyme activity, inhibitor): > 1 µM
O=C[C@H](C[C@@H]1CCNC1=O)NC(=O)[C@H](CC1CCCCC1)NS(=O)(=O)c1ccc(Cl)cc1 — IC50 (Replicase polyprotein 1ab main protease; enzyme activity, inhibitor, FRET): 10.1 µM
CNC(=O)NC1=CC(=O)CC(C)(C)C1 — IC50 (CDK2 with cyclin A; enzyme activity, inhibitor): > 100 µM
O=C(C=Cc1ccc(Cl)cc1)c1ccccc1O — IC50 (MED23 with ELF3; SEAP reporter gene, inhibitor): 3.93 ± 0.74 µM
O=C(N[C@@H](CC1CCCCC1)C(=O)N[C@@H](C[C@@H]1CCNC1=O)C(=O)C(=O)NC1CC1)OCc1cccc(Cl)c1 — IC50 (Replicase polyprotein 1a 3C-like proteinase; enzyme activity, FRET; NL-2010): > 50 µM
O=C(C=Cc1ccc(O)cc1)c1cccc(O)c1 — IC50 (MED23 with ELF3; SEAP reporter gene, inhibitor): 3.96 ± 0.04 µM
CC(C)C[C@H](NC(=O)[C@@H](NC(=O)[C@H](CCCNC(=N)N)NS(=O)(=O)Cc1ccccc1)C(C)C)[C@@H](O)CC(=O)NCCc1ccccc1 — IC50 (Plasmepsin X; enzyme activity, inhibitor): 0.99 µM
COc1cccc(NS(=O)(=O)c2ccc3c(c2)C(=C(C)C)C(=O)N3)c1 — IC50 (CDK8; enzyme activity, inhibitor, FRET): > 10 µM
Oc1ccccc1C1=NN(c2ccccc2)C(c2ccc(F)cc2)C1 (stereo not shown) — IC50 (Urease; enzyme activity, inhibitor, absorbance; pH 8.2): 13.5 µM
CC(C)(O)CC(=O)CC(C(=O)O)C1CC[C@]2(C)C1CCC1[C@@]3(C)CC[C@H](O)C(C)(C)C3CC[C@]12C (stereo partly shown) — IC50 (Tyrosine-protein phosphatase non-receptor type 1 (PTPN1, Homo sapiens, UniProt P18031); enzyme activity, inhibitor, absorbance): 4.26 µM
CC(C)C[C@H](NC(=O)[C@@H](NC(=O)[C@H](CCONC(=N)N)NC(=O)OCc1ccccc1)C1CCCCC1)[C@@H](O)CC(=O)NCCc1ccccc1 — IC50 (Plasmepsin X; enzyme activity, inhibitor): > 99 µM
CC(C)C[C@H](NC(=O)OCc1ccccc1)C(=O)N[C@@H](C[C@@H]1CCNC1=O)C(O)S(=O)(=O)O (stereo partly shown) — IC50 (Replicase polyprotein 1a 3C-like proteinase; enzyme activity, FRET; NL-2010): 1.33 ± 0.19 µM
Cc1cccc(C)c1-c1ccc2nc(NC(=O)C3CCCCC3)nn2c1 — IC50 (CDK2 with cyclin A; enzyme activity, inhibitor): > 100 µM
CC(C)C[C@H](NC(=O)OCc1cccc(Cl)c1)C(=O)N[C@H](C=O)C[C@@H]1CCNC1=O — IC50 (Replicase polyprotein 1ab main protease; enzyme activity, inhibitor, FRET): 0.88 µM
Cc1cccc(-c2ccc3nc(NC(=O)CC4CCCCC4)nn3c2)c1 — IC50 (CDK2 with cyclin A; enzyme activity, inhibitor): > 100 µM
N#Cc1ccc(C2CC(c3ccccc3O)=NN2c2ccccc2)cc1 (stereo not shown) — IC50 (Urease; enzyme activity, inhibitor, absorbance; pH 8.2): 9.35 µM
CC(=O)Nc1nc2ccc(-c3cccc(C)c3)cn2n1 — IC50 (CDK2 with cyclin A; enzyme activity, inhibitor): 26 µM
CC(C)=C1C(=O)Nc2ccc(S(=O)(=O)Nc3cccc4c3CCCC4)cc21 — IC50 (CDK8; enzyme activity, inhibitor, FRET): > 10 µM
O=C[C@H](C[C@@H]1CCNC1=O)NC(=O)[C@H](CC1CCCCC1)NC(=O)OCc1cccc(Cl)c1 — IC50 (Replicase polyprotein 1ab main protease; enzyme activity, inhibitor, FRET): 0.63 µM
O=C(Nc1nc2ccc(-c3cccc4ccccc34)cn2n1)C1CCCCC1 — IC50 (crk3 (Leishmania mexicana, UniProt O15851); enzyme activity, inhibitor, radiometric): 0.09 µM
CCC(=O)N1N=C(c2cccc(O)c2)CC1c1ccc(OC)cc1 (stereo not shown) — IC50 (MED23 with ELF3; SEAP reporter gene, inhibitor): 5.01 ± 1.16 µM
O=C(N[C@@H](CC1CCCCC1)C(=O)N[C@@H](C[C@@H]1CCNC1=O)C(O)S(=O)(=O)O)OCc1ccccc1 (stereo partly shown) — IC50 (Replicase polyprotein 1ab main protease; enzyme activity, inhibitor, FRET): 0.42 µM

For quick reference, copied from above:
Cc1cccc(-c2ccc3nc(NC(=O)C4CCCC4)nn3c2)c1 — IC50 (CDK2 with cyclin A; enzyme activity, inhibitor): > 100 µM
Oc1ccccc1C1=NN(c2ccccc2)C(c2ccc(C(F)(F)F)cc2)C1 (stereo not shown) — IC50 (Urease; enzyme activity, inhibitor, absorbance; pH 8.2): 12.6 µM
CC(C)C[C@H](NC(=O)[C@@H](NC(=O)[C@H](CCONC(=N)N)NC(=O)OCc1ccccc1)C(C)C)[C@@H](O)CC(=O)NCCc1ccccc1 — IC50 (Renin (REN, Homo sapiens, UniProt P00797); enzyme activity, inhibitor): > 1 µM
O=C[C@H](C[C@@H]1CCNC1=O)NC(=O)[C@H](CC1CCCCC1)NS(=O)(=O)c1ccc(Cl)cc1 — IC50 (Replicase polyprotein 1ab main protease; enzyme activity, inhibitor, FRET): 10.1 µM
CNC(=O)NC1=CC(=O)CC(C)(C)C1 — IC50 (CDK2 with cyclin A; enzyme activity, inhibitor): > 100 µM
